Published values pooled from the literature.
Protocols differ between the studies behind these lines. Values joined by “and” are separate records of one study, mostly repeats; a detail may differ. Numbers after ± are the reported error.
FGFR1: Fibroblast growth factor receptor 1 (FGFR1, Homo sapiens, UniProt P11362)

C[C@@H](O)[C@H](NC(=O)CP(=O)(O)OC[C@H]1O[C@@H](n2cnc3c(N)ncnc32)[C@H](O)[C@@H]1O)C(=O)O
IC50 (tsaD/tsaC, with TsaB and TsaE (Escherichia coli, UniProt P05852+P45748); inhibitor, HPLC; pH 7.5, 23 °C, preincubation 1 min, with: ATP 1 mM and L-threonine): 1300 ± 500 nM

CC(C)c1c(-c2cccc3[nH]ccc23)[nH]c(C(=O)O)c1-c1c(Cl)ccc2[nH]ccc12
IC50 (E3 ubiquitin-protein ligase RING2 (RNF2, Homo sapiens, UniProt Q99496); NanoBiT luminescence; HEK-293T; 24 h): ~6000 nM and 6000 nM

O=C(Nc1ccc(C(F)(F)F)nc1)N1CCC(Cc2cccc(Oc3ccc(C(F)(F)F)cn3)c2)CC1
IC50 (Faah (Mus musculus, UniProt O08914); enzyme activity, inhibitor, fluorescence; mouse tissue homogenate; 5 min preincubation): 560 nM

NCc1cccc(C2CCN(C(=O)c3cccc(NC(=O)C(=O)C4(O)CCC4)c3)CC2)c1
IC50 (Tryptase beta-1 (Homo sapiens, UniProt Q15661); enzyme activity, inhibitor; tryptase 10 pM, with: AMC substrate): 10.4 nM

C/C=C/C(=O)Nc1ccc2nc(NCCCCCN(C)C)nc(NCCCCCCN(C)C)c2c1
IC50 (Chromodomain Y-like protein 2, chromodomain (CDYL2, Homo sapiens, UniProt Q8N8U2); methyl-lysine binding, TR-FRET): > 100000 nM

Cc1cccc(C(=O)Nc2ccc(CN)cc2)c1O
IC50 (TMPRSS11D (Homo sapiens, UniProt O60235); enzyme activity, inhibitor; 15 min preincubation, with: Boc-VPR-AMC 100 µM): 42100 ± 2900 nM

CC1OC(Oc2c(-c3ccc(O)cc3)oc3cc(O)cc(O)c3c2=O)C(OC(=O)C=Cc2ccc(O)cc2)C(O)C1OC(=O)C=Cc1ccc(O)cc1 (centres unmarked)
IC50 (CXCR3 (Homo sapiens, UniProt P49682); calcium flux, antagonist; 293FT GCaMP6 transfected): ~10000 nM

O=C(NCCCN1CCC(Cc2ccccc2)CC1)c1cc2ccccc2[nH]1
IC50 (SLC6A4 (Homo sapiens, UniProt P31645); transporter uptake): 240 to 920 nM

CCc1cccc2c(C(=O)COC(=O)C34CC5CC(CC(Br)(C5)C3)C4)c[nH]c12
IC50 (D14 (Arabidopsis thaliana, UniProt Q9SQR3); enzyme activity, inhibitor, mass spectrometry): 2200 nM

COc1cc2nccc(Oc3ccc(NC(=S)Nc4ccccc4)c(Cl)c3)c2cc1C(N)=O
IC50 (FGFR1): 6100 nM

CC(C)Sc1ccc(SC(C)C)c(O)c(=O)c1O
IC50 (Protein P, RNase H domain (P, Hepatitis B virus genotype D subtype ayw, UniProt P03156); RNase H activity, inhibitor; Hepatitis B virus): 112000 ± 8000 nM

CNC(=O)CN1CN(c2ccccc2)C2(CCN(C(=O)c3cnc4[nH]ccc4c3)CC2)C1=O
IC50 (DDR1 (Homo sapiens, UniProt Q08345); ligand displacement): > 167000 nM

CC1=C(C2=C(C)C(=O)c3c(cc(O)c(O)c3Cc3ccccc3)C2=O)C(=O)c2cc(O)c(O)c(Cc3ccccc3)c2C1=O (racemic)
IC50 (Bcl-2-like protein 1, transmembrane domain deleted (BCL2L1, Homo sapiens, UniProt Q07817); binding, fluorescence polarization; with: FITC-Bim BH3 peptide): 54 ± 4 nM

COc1cc2nccc(Oc3ccc(NC(=S)NCc4cccnc4)c(Cl)c3)c2cc1C(N)=O
IC50 (FGFR1): 2930 nM

C[C@]12CCC(=O)C=C1CCC1C2CC[C@]2(C)C(c3cccnc3)=CCC12 (some centres unmarked)
IC50 (Androgen receptor (AR, Homo sapiens, UniProt P10275); binding; LAPC4; wild-type receptor, with: [3H]-R1881 0.1 nM): 7.9 nM

CCc1nc2cc(C)c(Oc3ccc(OC(F)(F)F)cc3)cc2c(O)c1C
IC50 (Cytochrome b (MT-CYB, Apis mellifera ligustica, UniProt P34845); succinate-cytochrome c oxidoreductase activity, inhibitor; Apis mellifera, mitochondria; 4 min preincubation, 30 °C): 298 nM

COCCOCCN1CCc2c(Cc3ccc(Cl)cc3)[nH]c3c(OC)ccc(c23)C1=O
IC50 (PDE5A (Homo sapiens, UniProt O76074); enzyme activity, inhibitor): 39 nM

A few entries again:
COc1cc2nccc(Oc3ccc(NC(=S)NCc4cccnc4)c(Cl)c3)c2cc1C(N)=O
IC50 (FGFR1): 2930 nM
